Assay results collected from several papers.
Each line is one published result; not all experiments were run side by side. ± gives the spread as reported. Values after ≈ are worked out from the molar mass of the structure shown.
UniProt P28335, sequence (whole entry, looked up): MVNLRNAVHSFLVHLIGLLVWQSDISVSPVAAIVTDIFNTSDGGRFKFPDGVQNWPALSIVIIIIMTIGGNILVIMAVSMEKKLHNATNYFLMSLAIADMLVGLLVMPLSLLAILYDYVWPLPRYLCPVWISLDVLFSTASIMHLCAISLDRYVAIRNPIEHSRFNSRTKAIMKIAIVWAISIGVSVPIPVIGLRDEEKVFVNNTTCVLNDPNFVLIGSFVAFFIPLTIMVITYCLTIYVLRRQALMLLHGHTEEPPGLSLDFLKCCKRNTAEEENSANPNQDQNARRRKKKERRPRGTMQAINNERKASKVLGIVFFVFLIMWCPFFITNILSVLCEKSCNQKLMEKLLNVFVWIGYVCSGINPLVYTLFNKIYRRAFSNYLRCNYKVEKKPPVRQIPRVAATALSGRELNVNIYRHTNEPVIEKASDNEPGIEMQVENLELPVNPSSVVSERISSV

COc1ccccc1-c1n[nH]c2nc(NC3CCN(C(=O)Cc4ccc(F)cc4F)CC3)ncc12 — relative abundance (bead binding, competition bead pull-down, item: LINJ.35.1420; Leishmania donovani axenic amastigote extract; 10 µM; relative to: vehicle): 1.1
CN1CC[C@]23c4c5ccc(O)c4O[C@H]2[C@H](O)CC[C@@]3(O)[C@H]1C5 — logP (1 h): 1.1
COc1ccc(-n2cc(C(=O)N3C[C@]4(OC(=O)c5ccccc5NC(C)=O)CC[C@H](OC)[C@@]56[C@@H]4C[C@@H]([C@@H]35)[C@@]3(O)C[C@H](OC)[C@H]4C[C@@H]6[C@]3(O)[C@H]4OC)nn2)cc1 — C0 (rat Sprague-Dawley, plasma; intravenous, 2 mg/kg): 214 ng/mL
O=C1NC(=O)c2c1c1cc(F)c[n+]3c1c1c2c2cc(O)ccc2[n]1[Ru-4]312([N]=C=S)[S+]3CC[S+]1CC[S+]2CC3 (stereo not shown) — remaining activity (Epidermal growth factor receptor (EGFR, Homo sapiens, UniProt P00533, L858R/T790M); enzyme activity; 100 nM, human enzyme, added: 10 µM ATP; relative to: untreated): 31%
COc1cc2c(cc1NC(=O)c1cncn1C)C[C@H]1[C@H]3CCCC[C@@]23CCN1C — hanging wire hold time (C57BL/6 mouse; ip, 50 µg/g, 30 min; relative to: control-injected): no effect
C[C@]12CC[C@H]3[C@@H](CCC4=CC(=O)CC[C@@]43C)[C@@H]1CC[C@@H]2O — hepatic intrinsic clearance (human liver microsomes; 1 nM): 64.4 mL/min/kg
CC[C@H](C)[C@H](NC(=O)[C@H](CC(=O)O)NC(=O)[C@@H](NC(=O)[C@@H]1CCCN1C(=O)[C@@H](N)CCCNC(=N)N)[C@@H](C)O)C(=O)N[C@@H](CCCCN)C(=O)N[C@H]1CSSC[C@@H]2NC(=O)[C@H](CCCNC(=N)N)NC(=O)CNC(=O)[C@H](CC(N)=O)NC(=O)[C@H]([C@@H](C)O)NC(=O)[C@H](CCCCN)NC(=O)CNC(=O)[C@H](Cc3ccccc3)NC(=O)[C@H](CCCNC(=N)N)NC(=O)[C@H](CO)NC(=O)[C@H](CCCCNC(=O)OCc3cc(OC)c(OC)cc3[N+](=O)[O-])NC(=O)[C@@H]3CSSC[C@@H](C(=O)N[C@@H](Cc4ccccc4)C(=O)O)NC(=O)[C@H](CC(=O)O)NC(=O)[C@H](CSSC[C@H](NC(=O)[C@H](CCC(N)=O)NC(=O)[C@H](Cc4ccc(O)cc4)NC(=O)[C@H](CO)NC(=O)[C@H](CCC(=O)O)NC(=O)[C@H](CO)NC1=O)C(=O)N[C@@H](Cc1ccccc1)C(=O)N1CCC[C@H]1C(=O)N[C@@H](C(C)C)C(=O)N3)NC(=O)[C@H](Cc1ccccc1)NC(=O)CNC(=O)[C@H](CC(N)=O)NC(=O)[C@H](C(C)C)NC2=O — RR interval change (rat, anaesthetised; intravenous, 350 µg/kg, no illumination): 6.6 ± 1.5 ms
CS(C)(=O)=Nc1ccc(-c2ccc(-c3nc4cc(O[C@@H]5CO[C@H]6[C@@H]5OC[C@H]6O)[nH]c4cc3F)cc2)cc1 — inhibition (5-hydroxytryptamine receptor 2C (HTR2C, Homo sapiens, UniProt P28335); calcium signal, antagonist; 10 µM): 5%
O=C1NC2(CC2)COc2ncc(F)cc2[C@H]2COCCN2c2ccn3ncc1c3n2 — pancreatic amylase activity (Sprague-Dawley rat, male, serum; oral, 10 mg/kg/day, 4 weeks daily, end of recovery period): 1960 ± 146 U/L
NC[C@]1(CC(=O)O)CC[C@H]([18F])CC1 — initial peak SUV (PET; rhesus monkey, brain; intravenous, 3.8 min, baseline scan): 0.55
CSCC[C@H](NC(=O)[C@H](CCC(=O)O)NC(=O)[C@H](Cc1ccc(O)cc1)NC(=O)[C@@H](NC(=O)[C@H](CC(C)C)NC(=O)[C@H](CC(=O)O)NC(=O)[C@H](CC(C)C)NC(C)=O)[C@@H](C)O)C(=O)N[C@@H](CC(C)C)C(=O)N[C@@H](CO)C(=O)N[C@@H](CC(C)C)C(=O)N[C@@H](CCC(N)=O)C(=O)N[C@@]1(C)CCCC=CCCC[C@@](C)(C(=O)N[C@@H](CC(C)C)C(=O)N[C@@H](CC(N)=O)C(=O)N[C@@H](CCC(=O)O)C(=O)N[C@@H](CO)C(=O)N[C@@H](Cc2ccc(O)cc2)C(N)=O)NC(=O)[C@H](CCCCN)NC(=O)[C@H](C(C)C)NC(=O)[C@H](C(C)C)NC1=O — solubility (concentration not given, 24 (unit not given)): 460 ± 80 µg/mL (≈ 180 µM)
COc1ccc2c3c1O[C@H]1[C@H](O)CC[C@H]4[C@@H](C2)N(C)CC[C@@]341 — logP (1 h): 1.36
[2H]c1nc([2H])c(-c2nc([2H])n3c2C([2H])([2H])N=C(c2ccccn2)c2cc(C#C)ccc2-3)o1 — AUC(0-t) (Sprague Dawley rat, brain; oral, 2 mg/kg, 0 to 24 h, cassette dosing): 414 ng·h/mL

For quick reference, copied from above:
COc1ccc(-n2cc(C(=O)N3C[C@]4(OC(=O)c5ccccc5NC(C)=O)CC[C@H](OC)[C@@]56[C@@H]4C[C@@H]([C@@H]35)[C@@]3(O)C[C@H](OC)[C@H]4C[C@@H]6[C@]3(O)[C@H]4OC)nn2)cc1 — C0 (rat Sprague-Dawley, plasma; intravenous, 2 mg/kg): 214 ng/mL
CSCC[C@H](NC(=O)[C@H](CCC(=O)O)NC(=O)[C@H](Cc1ccc(O)cc1)NC(=O)[C@@H](NC(=O)[C@H](CC(C)C)NC(=O)[C@H](CC(=O)O)NC(=O)[C@H](CC(C)C)NC(C)=O)[C@@H](C)O)C(=O)N[C@@H](CC(C)C)C(=O)N[C@@H](CO)C(=O)N[C@@H](CC(C)C)C(=O)N[C@@H](CCC(N)=O)C(=O)N[C@@]1(C)CCCC=CCCC[C@@](C)(C(=O)N[C@@H](CC(C)C)C(=O)N[C@@H](CC(N)=O)C(=O)N[C@@H](CCC(=O)O)C(=O)N[C@@H](CO)C(=O)N[C@@H](Cc2ccc(O)cc2)C(N)=O)NC(=O)[C@H](CCCCN)NC(=O)[C@H](C(C)C)NC(=O)[C@H](C(C)C)NC1=O — solubility (concentration not given, 24 (unit not given)): 460 ± 80 µg/mL (≈ 180 µM)
